# Published values gathered from unrelated publications.
# Every numbered part comes from another study and shows a few of its results, in no order. Substitutions count along the parent as printed.

# Series 1
# Target: RNA binding protein fox-1 homolog 2, RRM domain, GST-SBP tag (RBFOX2, Homo sapiens, UniProt O43251-10, residues 100-194)
# Method: RNA Bind-n-Seq
# Molecule type: RNA
# Matrix: in vitro
# Concentration: 365 nM
# Setting: natural RNA segment, single round, ends assumed
# Reference: no-protein control
# Reading: higher = stronger binding
# Constant ends, left off below: GGGAGUUCUACAGUCCGACGAUC … UGGAAUUCUCGGGUGCCAA
# Residues (chain): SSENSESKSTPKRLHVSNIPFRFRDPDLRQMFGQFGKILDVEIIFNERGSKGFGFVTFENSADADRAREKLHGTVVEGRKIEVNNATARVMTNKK
Oligonucleotide,RBNS enrichment (R)
CCUCUUGUUCUGAAAGGGAUUUCACAUCUUCAGCGUAGCUUCAGUACAUCAUCGGAGGAGUCUGCUGUCCCUAACACAGAGGGAGACCUCGCUUUCCUACCCCAAGCAAG,0.355
ACAAUGGCUUAAAUUCUUGAUUCUGCCUCAGGAGAAAGAAUAGUCUUCAUGUUUCCACUCAUCCUUCCUUUGGACCCAUCGGGGAAAAAGUCUAAAUUGGAGAUCCAGUU,0.182
AAGGCCUUUGACCCAUGUCAUCUGAGCGUCUCCUCCAGUAGCUCUGAAAGCUGUGGACACCAAUGGCCAGGAUUCCUUCUCCCCUGGUUUUUGAGGAUCCCUGGGUCUUC,0.202
GCAACAAAUGUUUUACUAUUUUUACAGGAUACUGUAAGGAAUAAUUUGACUUUUAAGAAAUCUUAAAUAUAAAUUUUCUGUGCAUUAAUGUAGUACCUCAUAGUUAAAAC,1.17
CUGAAAAGUAUAAGAAUACAAUUUACUUUUCCCAAACUCUUUUUCCUUAUUUUUUUCUUUCAAAUAACUUUAAUUAUUUAAUCCCAUACUGAUUAAAAUAUGUCUGUCUA,1.11
CUGUAUUCUUGCCAAAGAUUUCCUUUAAACAAGAGCACUUUUACCCAAUGGCUCUUUUGUGAAUGAUCUGUUUCGUUAUUGUUUAUUGUUGAGUCUGUAUAUCAACAGGG,0.49
GGAAACUCCCCACCUCACCCUGACAACCCUUGAUGUUUCCCAAAGUCUUUAGACAGCUGUGUGCAUGUUCAAAGACUUCAGGGGUGGAGUCUCACAAAGUCUUGUUUGAC,0.428
AUGGUGGCUUGAGUUGUCACUUGGUCCCCUCCGCCCCUCGGGUGGCCCCCUUUGCCACGUCCCCUUAGCUUAGUGAUCAGGUGUGAGAGUGGCCAUUUCCUUACCUUUGA,0.382

# Series 2
# Target: Histone acetyltransferase KAT6A, winged helix 2, GST fusion (KAT6A, Homo sapiens, UniProt Q92794, residues 85-181)
# Method: protein binding microarray
# Molecule type: double-stranded DNA, one strand shown
# Matrix: in vitro
# Concentration: not given
# Setting: 8-mer, flanks averaged, mean of 2 arrays, mostly near background
# Reference: not given
# Reading: higher = stronger binding
# Residues (chain): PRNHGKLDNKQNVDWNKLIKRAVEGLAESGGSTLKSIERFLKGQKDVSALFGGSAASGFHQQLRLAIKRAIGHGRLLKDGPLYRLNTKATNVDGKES
Oligonucleotide,E-score
TTAGAAAA,0.111
CCTGCTGA,0.0568
GCCCTCAC,0.13
AAGAAACT,0.0953
ATAAGATA,0.122
AACGAAGG,-0.00269
CGTCTGAG,0.0235
CCCAGAGA,-0.00097
AAAGCAGC,0.171
CACAGGCG,0.143
AGCACTAA,0.00662
ACTGTGGG,-0.0265
CCGTTTCG,0.118
CAAGGGGG,0.0573
ATACGTAT,0.0424
ACACGATC,-0.107
ATAGGCAG,0.0469
ACAGATGC,-0.13
ATTGCCAA,0.0583
ACCCCAAA,0.0044
CCAGATAC,-0.0743
GCCGTCAA,0.0709
ATACAAAT,0.0141
CGGGAACC,0.115
AAAGCACA,0.0875

# Series 3
# Target: CCNE1, cyclin fold, Cln2 fusion (human)
# Method: yeast growth competition, sequencing
# Matrix: yeast
# Setting: weak parent motif
# Reference: not given
# Reading: higher = stronger binding
# Starting sequence: WEE1 docking peptide (human); CTLRQKLIFSPCS
Variant,normalised enrichment score
S13A,0.547
Q5A,0.86
L3A,0.911
C1A,0.484
I8A,0.475
K6A,0.291
T2A,0.667

# Series 4
# Target: Interferon regulatory factor 5, full length, phosphomimetic (IRF5, Homo sapiens, UniProt Q13568-2, residues 1-514, K96S/S451D/S453D/S456D/S462D)
# Method: protein-binding microarray
# Molecule type: double-stranded DNA, one strand shown
# Matrix: in vitro
# Concentration: 250 nM
# Setting: 60-bp whole probe
# With: salmon DNA 0.4 mg/ml
# Reference: random background probes
# Reading: higher = stronger binding
# Constant ends, left off below: GCCTAGCAC … GTCTTGATTCGCTTGACGCTGCTG
Oligonucleotide,log fluorescence [z-score]
GACGGTCTCGGTATCGGGGCGTGCTAG,0.72
TGCTTTCTTTAACTCATTTTGTGCTAG,2.67
GACGGTTCGCTTTTCCTGACGTGCTAG,0.2
TAAGGACTGGGTATCGGTTAGTGCTAG,4.28
TCACGTCTGAGCTCCGTACTGTGCTAG,-0.323
CTAGTTGTACTTTCTATCTCTGTGCTA,2.98
TTAGGGCTGCTTATCCTTTAGTGCTAG,-0.641
GTTCTTTTCAGTCCCCTCTTGTGCTAG,1.32
TTAGGTATCGGACTGGGATAGTGCTAG,1.32
GACGGTAGCGGGTATCGGGACGTGCTA,0.375
GACGGACTGGGTATCTGGACGTGCTAG,-0.495
GCCGAACTGGGGTATCGAGACGTGCTA,0.253
TCAAGTGTCAATAATGACACTGTGCTA,0.129
GACGGTTTTGGGTATCGGGACGTGCTA,1.28
GACGGACTTGGTATCGGGACGTGCTAG,1.07
GACGGATTCGACTATCGGGACGTGCTA,1.65
ATTACTTTAGGTTCCCAGGTGTGCTAG,0.00602
GACGATTTCAGTTTCTAGACGTGCTAG,2.46
